Measurements pooled from the literature.
Parts stem from different laboratories: compare values within a part only.

Study 1
Target: Interferon regulatory factor 3, full length, phosphomimetic (IRF3, Homo sapiens, UniProt Q14653, residues 1-427, S386D/S396D/S398D/S402D/T404D/S405D)
Method: protein-binding microarray
Molecule type: double-stranded DNA, one strand shown
Medium: in vitro
Concentration: 2540 nM top
Setting: 60-bp whole probe
Together with: salmon DNA 0.4 mg/ml
Relative to: random background probes
Direction: higher = stronger binding
Shared flanks, not repeated: GCCTAGCAC … GTCTTGATTCGCTTGACGCTGCTG
Construct (chain): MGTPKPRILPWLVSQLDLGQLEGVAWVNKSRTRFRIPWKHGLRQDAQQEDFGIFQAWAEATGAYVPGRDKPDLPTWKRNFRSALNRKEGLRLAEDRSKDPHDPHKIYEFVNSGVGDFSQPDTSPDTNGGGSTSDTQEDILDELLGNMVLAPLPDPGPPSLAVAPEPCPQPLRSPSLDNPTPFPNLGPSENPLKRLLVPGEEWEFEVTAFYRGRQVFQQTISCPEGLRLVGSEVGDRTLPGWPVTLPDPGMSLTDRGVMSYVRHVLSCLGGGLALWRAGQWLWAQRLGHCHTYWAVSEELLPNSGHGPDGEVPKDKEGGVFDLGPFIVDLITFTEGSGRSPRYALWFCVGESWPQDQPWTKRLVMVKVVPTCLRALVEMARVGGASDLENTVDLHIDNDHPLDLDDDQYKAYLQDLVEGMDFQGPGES
| Sequence | fitted relative affinity [z-score] |
| --- | --- |
| TTAGATATCTGTTTCGATTAGTGCTAG | 3.71 |
| TCACCTCTCATTCCAATACTGTGCTAG | 1.26 |
| TCAATGTTCCCTATTTAACTGTGCTAG | 2.39 |
| TCACTTGTGTTTATTGTACTGTGCTAG | 0.0593 |
| TCATCTTTCACTGCTCCAACTGTGCTA | 1.33 |
| GACGGCTTCGGGTTTCGGGACGTGCTA | 0.524 |
| GACGAACTTAGTATCGAGACGTGCTAG | 0.517 |
| TACGATATCGGGACTGGAGACGTGCTA | -0.0488 |

Study 2
Target: Phosphate system positive regulatory protein PHO4, full length, GST-tagged (PHO4, Saccharomyces cerevisiae, UniProt P07270, residues 1-312)
Method: competition protein-binding microarray
Molecule type: double-stranded DNA, one strand shown
Medium: in vitro
Concentration: 2 µM
Setting: whole 60-bp probe, lowest competitor level
Together with: Cbf1 competitor, 0.05 µM
Direction: higher = stronger binding
Shared flanks, not repeated: … GTCTTGATTCGCTTGACGCTGCTG
Target sequence (chain): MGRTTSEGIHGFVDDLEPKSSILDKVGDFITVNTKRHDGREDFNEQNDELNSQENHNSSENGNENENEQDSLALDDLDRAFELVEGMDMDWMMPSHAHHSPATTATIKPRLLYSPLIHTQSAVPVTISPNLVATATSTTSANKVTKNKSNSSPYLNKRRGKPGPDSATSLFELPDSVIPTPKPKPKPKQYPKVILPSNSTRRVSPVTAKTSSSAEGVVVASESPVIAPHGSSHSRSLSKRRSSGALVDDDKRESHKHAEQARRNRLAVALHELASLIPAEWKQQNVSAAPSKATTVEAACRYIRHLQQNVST
| Sequence | fluorescence intensity [a.u.] |
| --- | --- |
| TTCCAGTCCTTCCATCACGCATTCCATATAATAACC | 7070 |
| TTACATGTAGGTAGCTTCGTGCCAGAACGCAAGGGT | 7900 |
| AAGAACATTGATAGTCCCGTGACGGCCCTAAGTGCG | 6070 |
| CTTTCCCGATCTTGTCACCGCACTTTAGCACATTTG | 4190 |
| CTAACGAAGGTTTGTCTGGTGGGTGACAAGCCAAGT | 4230 |
| GTCTTGTCTCATTCGCACGTGTTTTTCCCCACTTCA | 14300 |
| AGCACTTACGGTTACAACGTGAGCCCTGTCGAAGAA | 9150 |

Study 3
Target: Sal-like protein 4, full length isoform B (SALL4, Homo sapiens, UniProt Q9UJQ4-2, residues 1-616)
Method: universal PBM
Molecule type: double-stranded DNA, one strand shown
Medium: in vitro
Concentration: not given
Setting: 8-mer, flanks averaged, mean of replicates
Direction: higher = stronger binding
Target sequence (chain): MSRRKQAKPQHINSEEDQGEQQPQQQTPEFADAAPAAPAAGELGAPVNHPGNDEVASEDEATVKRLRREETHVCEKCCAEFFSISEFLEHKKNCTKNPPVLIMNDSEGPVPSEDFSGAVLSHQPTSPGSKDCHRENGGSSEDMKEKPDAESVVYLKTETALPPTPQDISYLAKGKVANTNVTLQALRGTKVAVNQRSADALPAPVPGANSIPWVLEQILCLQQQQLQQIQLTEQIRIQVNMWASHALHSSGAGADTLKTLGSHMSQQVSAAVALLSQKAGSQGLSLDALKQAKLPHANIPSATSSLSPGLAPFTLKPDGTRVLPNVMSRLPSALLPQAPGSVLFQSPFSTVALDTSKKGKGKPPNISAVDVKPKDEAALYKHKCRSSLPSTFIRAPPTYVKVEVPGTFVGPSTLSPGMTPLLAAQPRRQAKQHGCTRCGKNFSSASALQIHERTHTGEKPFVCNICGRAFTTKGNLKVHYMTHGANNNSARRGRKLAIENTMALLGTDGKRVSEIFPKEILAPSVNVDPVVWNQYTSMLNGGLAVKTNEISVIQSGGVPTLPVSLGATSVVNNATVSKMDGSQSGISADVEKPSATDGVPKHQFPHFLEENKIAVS
| Sequence | E-score |
| --- | --- |
| AGTGCAGA | -0.044 |
| GGCAAGGA | -0.0841 |
| GCATGCCA | -0.251 |
| AACCTTGC | -0.0994 |
| ACTGGGAA | -0.0283 |
| AAGCTATA | 0.276 |

Other studies, line by line
| Substance | target | test | system | setting | scale | quantity | value |
| --- | --- | --- | --- | --- | --- | --- | --- |
| PhoQ, residues 284 288 289 292 302 303 ALVSVA | PhoP, residues 12 14 15 18 19 VQALL (Escherichia coli, UniProt P23836) | Sort-seq, refers to: YFP reporter | E. coli | PhoQ-PhoP variant library, together with: 10 µM Mg2+ | relative to: high Mg2+ state, higher = stronger signaling | fold induction | 16.6 |
